Measurements of several laboratories.
Every numbered part comes from another study and shows a few of its results, in no order.

Study 1
Target: Sal-like protein 4, full length isoform B (SALL4, Homo sapiens, UniProt Q9UJQ4-2, residues 1-616)
Technique: universal PBM
Form: double-stranded DNA, one strand shown
Sample: in vitro
Tested at: not given
Setting: 8-mer, flanks averaged, mean of replicates
Direction: higher = stronger binding
Strand | E-score
GATACACC | 0.0909
TGGTGACA | 0.0351
ATGGTAGA | 0.0261
ATAGGAGG | -0.0155
AAGGGTCA | -0.0754

Study 2
Target: Protein C-ets-1 (ETS1, Homo sapiens, UniProt P14921, residues 1-441, K379A, full length assumed)
Technique: protein-binding microarray
Form: double-stranded DNA, one strand shown
Sample: in vitro
Tested at: not given
Setting: k-mer, scored over probes, only values ≥0.25
Direction: higher = stronger binding
Residues (chain): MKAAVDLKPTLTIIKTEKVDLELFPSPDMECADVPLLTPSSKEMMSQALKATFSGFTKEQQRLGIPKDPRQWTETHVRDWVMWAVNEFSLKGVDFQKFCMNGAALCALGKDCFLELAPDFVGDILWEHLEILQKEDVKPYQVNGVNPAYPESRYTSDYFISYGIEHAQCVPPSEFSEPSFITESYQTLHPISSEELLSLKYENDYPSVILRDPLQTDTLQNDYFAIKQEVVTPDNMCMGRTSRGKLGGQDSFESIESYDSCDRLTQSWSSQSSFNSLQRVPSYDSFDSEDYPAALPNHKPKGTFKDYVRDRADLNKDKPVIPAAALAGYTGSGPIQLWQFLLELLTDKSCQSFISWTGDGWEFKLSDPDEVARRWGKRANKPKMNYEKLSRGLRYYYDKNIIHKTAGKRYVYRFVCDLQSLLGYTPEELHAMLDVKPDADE
Strand | E-score
AGGCGGGG | 0.315
TAATGTAA | 0.26
ATATCCGG | 0.403

Study 3
Target: Histone acetyltransferase KAT6A, both winged helices, GST fusion (KAT6A, Homo sapiens, UniProt Q92794, residues 1-181)
Technique: protein binding microarray
Form: double-stranded DNA, one strand shown
Sample: in vitro
Tested at: not given
Setting: 8-mer, flanks averaged, mean of 2 arrays, mostly near background
Baseline: not given
Direction: higher = stronger binding
Construct (chain): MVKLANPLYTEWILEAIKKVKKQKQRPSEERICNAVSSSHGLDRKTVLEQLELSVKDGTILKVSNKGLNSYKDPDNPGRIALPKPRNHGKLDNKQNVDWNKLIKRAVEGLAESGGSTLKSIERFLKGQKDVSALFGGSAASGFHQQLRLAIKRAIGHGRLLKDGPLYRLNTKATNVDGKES
Strand | E-score
GTGCTTGA | -0.169
CTCTATCC | 0.00554
ATGGCGTG | -0.0395
TCTAGAAA | -0.0145
AGTCACAG | -0.162

Single results of other studies
Substance | target | assay | test system | setting | how to read | quantity | result
PhoQ, residues 284 288 289 292 302 303 SMYGEC | PhoP, residues 12 14 15 18 19 LHHVQ (Escherichia coli, UniProt P23836) | Sort-seq, item: YFP reporter | E. coli | PhoQ-PhoP variant library, together with: 10 µM Mg2+ | baseline: high Mg2+ state, higher = stronger signaling | fold induction | 6.79

A few entries again (study 3):
Strand | E-score
ATGGCGTG | -0.0395
